{"sequences": {"note": "Sequences of proteins named here, by UniProt entry; tags and fusion partners are left off.", "UniProt Q92630, whole entry": "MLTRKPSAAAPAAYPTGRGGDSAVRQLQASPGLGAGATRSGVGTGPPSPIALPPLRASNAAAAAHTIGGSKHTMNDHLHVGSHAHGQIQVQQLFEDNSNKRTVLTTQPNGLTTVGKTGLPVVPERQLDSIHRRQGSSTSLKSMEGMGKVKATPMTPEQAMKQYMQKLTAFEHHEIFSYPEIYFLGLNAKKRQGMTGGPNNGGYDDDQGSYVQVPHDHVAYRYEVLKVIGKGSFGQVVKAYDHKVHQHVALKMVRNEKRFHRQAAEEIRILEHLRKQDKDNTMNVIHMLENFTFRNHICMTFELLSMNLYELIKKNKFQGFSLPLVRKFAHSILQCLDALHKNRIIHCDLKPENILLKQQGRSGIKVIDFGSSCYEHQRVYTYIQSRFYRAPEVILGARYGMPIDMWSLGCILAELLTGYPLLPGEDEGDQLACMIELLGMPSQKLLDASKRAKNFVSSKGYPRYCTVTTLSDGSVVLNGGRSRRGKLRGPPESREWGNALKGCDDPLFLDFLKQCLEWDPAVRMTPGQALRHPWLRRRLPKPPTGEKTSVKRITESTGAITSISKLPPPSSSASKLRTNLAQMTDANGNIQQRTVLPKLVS", "UniProt Q04609, whole entry": "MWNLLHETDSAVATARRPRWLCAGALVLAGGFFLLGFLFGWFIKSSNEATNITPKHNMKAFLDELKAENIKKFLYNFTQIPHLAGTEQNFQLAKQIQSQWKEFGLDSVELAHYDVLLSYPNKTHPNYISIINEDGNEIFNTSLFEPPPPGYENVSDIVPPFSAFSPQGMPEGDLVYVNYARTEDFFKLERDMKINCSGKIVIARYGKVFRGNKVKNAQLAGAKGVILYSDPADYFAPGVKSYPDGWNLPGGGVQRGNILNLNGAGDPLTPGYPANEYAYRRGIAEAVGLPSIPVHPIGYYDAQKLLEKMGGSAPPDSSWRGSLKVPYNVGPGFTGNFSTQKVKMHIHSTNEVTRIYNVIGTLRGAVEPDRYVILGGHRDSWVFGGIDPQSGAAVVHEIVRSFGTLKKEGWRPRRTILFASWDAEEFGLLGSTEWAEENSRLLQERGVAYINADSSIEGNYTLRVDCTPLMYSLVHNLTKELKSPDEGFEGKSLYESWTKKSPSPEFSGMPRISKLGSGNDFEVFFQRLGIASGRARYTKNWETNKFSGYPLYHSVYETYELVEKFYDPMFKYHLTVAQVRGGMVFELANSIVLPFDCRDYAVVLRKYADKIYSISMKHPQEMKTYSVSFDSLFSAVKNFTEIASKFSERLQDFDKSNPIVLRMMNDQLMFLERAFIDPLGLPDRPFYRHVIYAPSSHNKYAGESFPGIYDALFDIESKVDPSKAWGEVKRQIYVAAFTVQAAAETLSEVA", "UniProt P03372, whole entry": "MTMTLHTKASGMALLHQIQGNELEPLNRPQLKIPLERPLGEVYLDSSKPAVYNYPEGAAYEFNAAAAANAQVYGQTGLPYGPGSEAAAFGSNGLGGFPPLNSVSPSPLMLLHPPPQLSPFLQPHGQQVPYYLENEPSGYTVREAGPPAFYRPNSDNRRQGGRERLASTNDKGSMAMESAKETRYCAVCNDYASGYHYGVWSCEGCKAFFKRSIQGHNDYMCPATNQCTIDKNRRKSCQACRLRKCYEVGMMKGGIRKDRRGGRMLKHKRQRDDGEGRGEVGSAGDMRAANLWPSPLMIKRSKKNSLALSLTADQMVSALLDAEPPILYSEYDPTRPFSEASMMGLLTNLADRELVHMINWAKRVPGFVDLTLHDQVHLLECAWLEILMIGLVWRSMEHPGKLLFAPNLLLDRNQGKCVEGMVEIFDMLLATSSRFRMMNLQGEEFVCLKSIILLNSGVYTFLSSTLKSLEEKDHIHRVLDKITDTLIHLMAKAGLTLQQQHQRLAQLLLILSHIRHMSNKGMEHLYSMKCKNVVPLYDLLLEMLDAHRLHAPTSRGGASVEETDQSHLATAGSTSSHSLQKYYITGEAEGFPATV", "UniProt P34913, whole entry": "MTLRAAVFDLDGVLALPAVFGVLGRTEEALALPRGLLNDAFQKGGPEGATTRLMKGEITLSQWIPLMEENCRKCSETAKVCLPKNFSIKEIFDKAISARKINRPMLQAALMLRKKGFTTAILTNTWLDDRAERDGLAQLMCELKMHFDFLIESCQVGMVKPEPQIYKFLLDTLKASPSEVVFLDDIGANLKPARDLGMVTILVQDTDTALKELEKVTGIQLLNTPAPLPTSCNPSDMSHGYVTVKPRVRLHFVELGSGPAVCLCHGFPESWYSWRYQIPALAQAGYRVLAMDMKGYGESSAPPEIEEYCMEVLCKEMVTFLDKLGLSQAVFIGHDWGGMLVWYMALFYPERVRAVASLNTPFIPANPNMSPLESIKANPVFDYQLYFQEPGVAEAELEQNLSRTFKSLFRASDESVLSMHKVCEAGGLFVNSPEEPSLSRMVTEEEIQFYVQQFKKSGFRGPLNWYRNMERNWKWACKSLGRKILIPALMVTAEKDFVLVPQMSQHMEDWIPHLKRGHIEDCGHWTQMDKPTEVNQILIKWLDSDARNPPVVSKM", "UniProt Q6P5Z2, whole entry": "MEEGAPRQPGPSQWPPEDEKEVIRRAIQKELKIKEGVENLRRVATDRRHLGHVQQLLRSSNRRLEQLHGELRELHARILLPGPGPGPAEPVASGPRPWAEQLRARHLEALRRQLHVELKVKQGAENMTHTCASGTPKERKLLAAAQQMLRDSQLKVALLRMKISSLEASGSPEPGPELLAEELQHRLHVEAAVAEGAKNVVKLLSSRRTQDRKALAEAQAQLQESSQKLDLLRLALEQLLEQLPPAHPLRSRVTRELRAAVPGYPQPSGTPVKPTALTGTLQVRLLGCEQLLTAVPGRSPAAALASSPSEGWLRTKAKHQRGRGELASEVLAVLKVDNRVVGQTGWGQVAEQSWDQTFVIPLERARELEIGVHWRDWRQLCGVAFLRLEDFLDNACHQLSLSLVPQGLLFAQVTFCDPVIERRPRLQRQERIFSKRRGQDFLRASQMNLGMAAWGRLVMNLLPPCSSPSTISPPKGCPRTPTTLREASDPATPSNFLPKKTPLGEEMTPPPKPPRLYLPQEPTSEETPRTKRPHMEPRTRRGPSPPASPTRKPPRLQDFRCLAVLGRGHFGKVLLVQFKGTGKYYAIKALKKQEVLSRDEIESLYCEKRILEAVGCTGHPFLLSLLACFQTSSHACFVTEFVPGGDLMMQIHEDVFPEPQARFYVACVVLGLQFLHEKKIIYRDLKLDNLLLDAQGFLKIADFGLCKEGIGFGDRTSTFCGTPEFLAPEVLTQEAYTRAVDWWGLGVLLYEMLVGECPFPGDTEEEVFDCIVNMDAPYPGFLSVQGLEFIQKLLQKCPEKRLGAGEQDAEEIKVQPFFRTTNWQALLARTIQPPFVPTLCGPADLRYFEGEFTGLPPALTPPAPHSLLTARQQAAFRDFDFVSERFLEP", "UniProt Q13304, whole entry": "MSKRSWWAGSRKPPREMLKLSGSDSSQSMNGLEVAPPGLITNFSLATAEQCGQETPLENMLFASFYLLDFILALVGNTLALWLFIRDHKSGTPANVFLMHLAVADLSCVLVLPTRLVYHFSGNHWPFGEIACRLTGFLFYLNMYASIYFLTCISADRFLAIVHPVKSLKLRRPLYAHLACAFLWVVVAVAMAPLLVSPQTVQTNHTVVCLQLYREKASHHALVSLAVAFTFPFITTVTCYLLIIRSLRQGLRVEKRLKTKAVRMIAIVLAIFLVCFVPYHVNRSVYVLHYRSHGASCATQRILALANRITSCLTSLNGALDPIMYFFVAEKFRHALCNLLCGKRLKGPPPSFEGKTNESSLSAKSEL", "UniProt P14902, whole entry": "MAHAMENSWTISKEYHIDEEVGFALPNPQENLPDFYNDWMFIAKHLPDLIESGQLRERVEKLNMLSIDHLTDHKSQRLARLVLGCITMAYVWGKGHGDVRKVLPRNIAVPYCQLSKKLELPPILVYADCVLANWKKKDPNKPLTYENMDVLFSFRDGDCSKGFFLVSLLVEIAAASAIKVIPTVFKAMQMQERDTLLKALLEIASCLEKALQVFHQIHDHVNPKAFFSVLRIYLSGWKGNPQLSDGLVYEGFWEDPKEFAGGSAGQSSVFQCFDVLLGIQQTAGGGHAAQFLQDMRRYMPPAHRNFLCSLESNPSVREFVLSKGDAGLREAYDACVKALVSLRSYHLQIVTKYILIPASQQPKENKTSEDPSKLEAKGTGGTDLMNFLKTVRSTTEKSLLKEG", "UniProt P08238, whole entry": "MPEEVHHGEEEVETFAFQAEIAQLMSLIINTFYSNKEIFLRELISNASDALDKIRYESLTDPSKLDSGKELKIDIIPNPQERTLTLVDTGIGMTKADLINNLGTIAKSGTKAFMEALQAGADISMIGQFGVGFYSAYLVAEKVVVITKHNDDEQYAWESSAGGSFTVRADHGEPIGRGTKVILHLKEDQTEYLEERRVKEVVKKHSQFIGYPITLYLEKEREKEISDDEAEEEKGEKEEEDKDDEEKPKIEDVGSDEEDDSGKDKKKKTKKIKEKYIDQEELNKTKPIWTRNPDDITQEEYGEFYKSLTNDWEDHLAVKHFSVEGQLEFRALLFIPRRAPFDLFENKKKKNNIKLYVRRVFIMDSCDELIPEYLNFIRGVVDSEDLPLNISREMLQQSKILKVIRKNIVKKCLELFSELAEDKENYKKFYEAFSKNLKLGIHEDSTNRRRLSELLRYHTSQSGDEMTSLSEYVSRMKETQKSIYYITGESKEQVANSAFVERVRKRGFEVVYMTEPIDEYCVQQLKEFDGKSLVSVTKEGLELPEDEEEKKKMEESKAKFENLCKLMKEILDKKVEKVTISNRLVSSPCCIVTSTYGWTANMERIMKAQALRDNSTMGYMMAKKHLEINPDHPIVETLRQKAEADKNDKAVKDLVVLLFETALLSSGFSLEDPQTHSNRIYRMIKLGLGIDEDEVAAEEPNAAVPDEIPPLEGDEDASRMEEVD", "UniProt P05067, whole entry, looked up": "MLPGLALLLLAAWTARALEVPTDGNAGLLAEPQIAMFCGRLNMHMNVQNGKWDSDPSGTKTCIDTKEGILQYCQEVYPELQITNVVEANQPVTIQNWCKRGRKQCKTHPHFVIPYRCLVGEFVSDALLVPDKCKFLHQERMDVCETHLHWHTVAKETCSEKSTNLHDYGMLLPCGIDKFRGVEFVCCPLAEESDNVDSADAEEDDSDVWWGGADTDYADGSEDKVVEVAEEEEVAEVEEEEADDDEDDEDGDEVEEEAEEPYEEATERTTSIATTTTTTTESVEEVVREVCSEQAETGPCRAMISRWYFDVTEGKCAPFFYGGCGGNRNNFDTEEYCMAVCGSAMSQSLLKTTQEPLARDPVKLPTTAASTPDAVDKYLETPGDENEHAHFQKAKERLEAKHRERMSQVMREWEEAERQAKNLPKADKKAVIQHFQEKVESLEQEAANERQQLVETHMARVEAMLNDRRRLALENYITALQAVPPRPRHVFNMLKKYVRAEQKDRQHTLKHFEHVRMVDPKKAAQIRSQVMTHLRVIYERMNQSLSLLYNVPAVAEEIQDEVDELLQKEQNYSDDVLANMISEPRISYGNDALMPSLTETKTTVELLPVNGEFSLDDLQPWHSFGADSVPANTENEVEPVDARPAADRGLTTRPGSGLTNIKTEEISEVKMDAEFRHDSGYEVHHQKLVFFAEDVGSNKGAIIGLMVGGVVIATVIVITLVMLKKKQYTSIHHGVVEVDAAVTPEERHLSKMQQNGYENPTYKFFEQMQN", "UniProt P29466, whole entry, looked up": "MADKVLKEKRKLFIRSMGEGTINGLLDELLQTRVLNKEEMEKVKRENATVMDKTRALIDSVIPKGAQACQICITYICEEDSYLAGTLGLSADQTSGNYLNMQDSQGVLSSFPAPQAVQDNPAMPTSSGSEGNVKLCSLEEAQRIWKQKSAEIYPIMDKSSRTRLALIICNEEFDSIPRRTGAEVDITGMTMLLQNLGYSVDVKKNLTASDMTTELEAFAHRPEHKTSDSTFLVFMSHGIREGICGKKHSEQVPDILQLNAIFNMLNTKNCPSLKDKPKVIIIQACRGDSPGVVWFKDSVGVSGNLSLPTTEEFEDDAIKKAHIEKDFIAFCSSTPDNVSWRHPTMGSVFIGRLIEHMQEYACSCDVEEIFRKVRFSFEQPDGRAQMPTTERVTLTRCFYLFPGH", "UniProt O95433, whole entry": "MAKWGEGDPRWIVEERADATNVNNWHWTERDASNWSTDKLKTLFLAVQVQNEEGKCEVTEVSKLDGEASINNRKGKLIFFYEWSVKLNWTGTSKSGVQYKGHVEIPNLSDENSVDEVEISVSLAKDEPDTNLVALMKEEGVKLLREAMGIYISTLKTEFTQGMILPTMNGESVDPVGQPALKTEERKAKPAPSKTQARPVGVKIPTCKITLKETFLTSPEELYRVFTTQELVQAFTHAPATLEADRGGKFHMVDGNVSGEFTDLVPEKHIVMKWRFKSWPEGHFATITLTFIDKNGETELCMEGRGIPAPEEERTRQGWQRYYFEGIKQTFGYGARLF"}, "data": "Assay results pooled from the literature", "note": "Protocols differ between the studies behind these lines. Values joined by “and” are separate records of one study, mostly repeats; a detail may differ. ± marks the error that the study gave."}
{"Structure (SMILES)": "NCCCSc1c2cc(O)ccc2nc2ccc(O)cc12", "target": "Dual specificity tyrosine-phosphorylation-regulated kinase 2 (DYRK2, Homo sapiens, UniProt Q92630)", "assay": "inhibitor", "setting": "added: Woodtide peptide", "IC50": "0.17 µM"}
{"Structure (SMILES)": "O=C(O)CCC(NS(=O)(=O)C(F)(F)F)C(=O)O (stereo not shown)", "target": "Glutamate carboxypeptidase 2 (FOLH1, Homo sapiens, UniProt Q04609)", "assay": "enzyme activity, inhibitor, HPLC", "setting": "15 min, pH 7.4, 37 °C, 1% Triton X-100, added: 10 mM glutamate dipeptide substrate", "IC50": "> 100 µM"}
{"Structure (SMILES)": "CN1CCc2cc(Nc3ncn(C)c(=O)c3Cl)ccc2C1", "target": "Nucleosome-remodeling factor subunit BPTF, bromodomain (BPTF, Homo sapiens, UniProt Q12830)", "assay": "target engagement, inhibitor, NanoBRET displacement", "test system": "HEK293T", "IC50": "1.4 ± 0.2 µM"}
{"Structure (SMILES)": "O=C(CCCn1c(=S)[nH]c2ccccc2c1=O)N1CCN(c2cccc(O)c2)CC1", "target": "Estrogen receptor (ESR1, Homo sapiens, UniProt P03372)", "assay": "reporter gene, antagonist", "test system": "HEC-1 cells transfected with ERα", "setting": "added: estradiol 1 nM", "IC50": "10.4 µM"}
{"Structure (SMILES)": "O=C(O)c1cc(C(=O)N[C@@H](Cc2c[nH]c3ccccc23)C(=O)O)cc([C@H]2CCN[C@@H]2C(=O)O)c1", "target": "kainate receptor (rat)", "assay": "binding, radioligand binding", "test system": "rat cortical synaptosomes", "setting": "added: [3H]kainate", "IC50": "10 to 50 µM"}
{"Structure (SMILES)": "COC(=O)N1CCN(CCCOc2cccc(NC(=O)NC34CC5CC(CC(C5)C3)C4)c2)CC1", "target": "Bifunctional epoxide hydrolase 2 (EPHX2, Homo sapiens, UniProt P34913)", "assay": "enzyme activity, inhibitor", "setting": "pH 7.0, 30 °C, added: CMNPC 5 µM", "IC50": "0.0011 µM"}
{"Structure (SMILES)": "Cc1ncsc1-c1ccc(CNC(=O)[C@@H]2C[C@@H](O)CN2C(=O)c2cccc(Br)c2)cc1", "target": "von Hippel-Lindau disease tumor suppressor, with elongin B, C (VHL, Homo sapiens, UniProt P40337)", "assay": "binding, fluorescence polarization", "setting": "1% DMSO, added: FAM-HIF1α peptide tracer", "IC50": "26.8 ± 1.8 µM"}
{"Structure (SMILES)": "COc1cc(Nc2ccnc3ccc(Cl)cc23)cc(OC)c1OC", "target": "Serine/threonine-protein kinase N3 (PKN3, Homo sapiens, UniProt Q6P5Z2)", "assay": "target engagement, NanoBRET", "test system": "HEK293", "IC50": "6.5 µM"}
{"Structure (SMILES)": "O=C(Nc1ccc(Cl)cc1)C(NS(=O)(=O)c1cccs1)c1ccc(-c2ccccc2)cc1 (stereo not shown)", "target": "Uracil nucleotide/cysteinyl leukotriene receptor, long isoform (GPR17, Homo sapiens, UniProt Q13304)", "assay": "calcium mobilization, antagonist", "test system": "1321-N1", "IC50": "3.18 ± 0.43 µM"}
{"Structure (SMILES)": "CCN1CCN(c2ccc(Nc3ncc4c(n3)N(C)C(=O)N(c3cc(NC(=O)c5cccc(C(F)(F)F)c5)ccc3C)C4)cc2)CC1", "target": "Fibroblast growth factor receptor 4 (FGFR4, Homo sapiens, UniProt P22455)", "assay": "enzyme activity, inhibitor, radiometric kinase", "IC50": "0.00582 µM"}
{"Structure (SMILES)": "COc1ccc2[nH]cc(/C=C/c3cccnc3)c2c1", "target": "Indoleamine 2,3-dioxygenase 1 (IDO1, Homo sapiens, UniProt P14902)", "assay": "enzyme activity, inhibitor", "IC50": "12.6 µM"}
{"Structure (SMILES)": "O=C(c1ccc(O)c(Cl)c1)N1Cc2ccccc2C1", "target": "Heat shock protein HSP 90-beta (HSP90AB1, Homo sapiens, UniProt P08238)", "assay": "binding, fluorescence polarization", "setting": "added: FITC-geldanamycin tracer", "IC50": "> 100 µM"}
{"Structure (SMILES)": "COc1ccc2[nH]cc(/C=C/c3ccc(NC(C)=O)cc3)c2c1", "target": "Amyloid-beta precursor protein, amyloid-beta peptide (APP, Homo sapiens, UniProt P05067)", "assay": "Aβ42 oligomerisation, ELISA", "IC50": "2.5 µM"}
{"Structure (SMILES)": "COc1cc(Cl)ccc1NC(=O)C(C(F)(F)F)C(F)(F)F", "target": "Chymotrypsinogen A (Bos taurus, UniProt P00766)", "assay": "inhibitor, fluorogenic peptide substrate", "IC50": "2.4 µM"}
{"Structure (SMILES)": "CCC(NC(=O)C(CC(C)C)NC(=O)Cc1ccncc1)C(=O)C(=O)NCc1cc(OC)cc(OC)c1 (stereo not shown)", "target": "Calpain-1 catalytic subunit (Capn1, Mus musculus, UniProt O35350)", "assay": "enzyme activity, inhibitor", "test system": "pons-cerebellum membrane fractions", "setting": "added: calcium 20 µM", "IC50": "0.409 µM"}
{"Structure (SMILES)": "Cc1ccc(C(=O)Nc2ccc(-c3nc4ccccc4[nH]3)cc2)cc1", "target": "Tyrosine-protein kinase SYK, with FCER1G (SYK, Homo sapiens, UniProt P43405)", "assay": "protein binding, inhibitor, TR-FRET", "IC50": "> 100 µM"}
{"Structure (SMILES)": "O=C(N/N=C/c1ccc(Sc2ncccn2)o1)c1cccc(Br)c1", "target": "Protein phosphatase EYA2 (Homo sapiens, UniProt O00167)", "assay": "tyrosine phosphatase activity, inhibitor", "IC50": "0.55 µM"}
{"Structure (SMILES)": "O=C(CN1C(=O)C=CC1=O)N1CCN(c2cc(N3CCCC3)nc(N3CCCC3)n2)CC1", "target": "Caspase-1 (CASP1, Homo sapiens, UniProt P29466)", "assay": "enzyme activity, inhibitor", "setting": "30 min preincubation, added: Ac-WEHD-AMC 10 µM", "IC50": "0.144 µM and 0.134 µM"}
{"Structure (SMILES)": "O=C(NNC(=S)Nc1cccc(C(F)(F)F)c1)c1cccn1-c1ccc(F)cc1", "target": "AHSA1/HSP90AB1 (Homo sapiens, UniProt O95433+P08238)", "assay": "Aha1-stimulated ATPase activity, inhibitor, quinaldine red", "IC50": "0.3 µM"}
